Experimental data gathered from unrelated publications.
Each numbered part is a random draw from the data of one study; scales do not carry over between parts.

Series 1
Target: RNA binding protein fox-1 homolog 2, RRM domain, GST-SBP tag (RBFOX2, Homo sapiens, UniProt O43251-10, residues 100-194)
Method: RNA Bind-n-Seq
Form: RNA
Matrix: in vitro
Concentration: 365 nM
Setting: natural RNA segment, single round, ends assumed
Reference: no-protein control
Reading: higher = stronger binding
Target sequence (chain): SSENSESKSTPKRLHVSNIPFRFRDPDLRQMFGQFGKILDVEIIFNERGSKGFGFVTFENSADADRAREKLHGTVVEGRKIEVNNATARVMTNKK
`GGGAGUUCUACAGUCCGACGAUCGAGAGAGAGCAGAGAGCGCCUCCUAUUCUACCGCGGCUGCCUCUGCCCCCACAGCACCCACAGAUCCCUGGCCCUUCCAGGAGUAAGUCCUGGGCAGGCAGAGCUGGGGUUGGAAUUCUCGGGUGCCAA`: “RBNS enrichment (R)” 0.26.
Under “RBNS enrichment (R)”, `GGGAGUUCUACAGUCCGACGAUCCUGCUUGUGGGAGUGGGAAAUGGGUAUUUUAGACCCAACACAGGUUCUAAAUUUAAAACAAAUAAUAAUUGGAACAAAUAAAGGUUCUUGUACCCAGAGUGAUUCUACAUUGGAAUUCUCGGGUGCCAA` is recorded as 0.432.
`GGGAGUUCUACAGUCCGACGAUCUCCCGGAGACCCACCGGGAGGGCGCCGCCAUGCCUUGUACCCCCACCGUGCAGGUUGUGGCCGGUUUUCUCCGCAGGUUGAACAUGGAAAUAAAAGCAAACUUGUAUGAAUGGAAUUCUCGGGUGCCAA`: “RBNS enrichment (R)” 0.372.
`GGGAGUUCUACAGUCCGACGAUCUUUCAGACAUUCGCUCACGGACAAUACCAUCUCAGCUUUGCCCUUGCUCCGUGUGUCCACUCCUGCCCCCCUCCCCCAGGUUUUCCUGUUAUUUUCUUUCUCAGGGUCCUUGGAAUUCUCGGGUGCCAA` — result for “RBNS enrichment (R)”: 0.52.
`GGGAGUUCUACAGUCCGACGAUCGGGCCAGGUCUGCCCAGCGUUUACCACUGCUGUCAAGCCACAGCCCUUGGCCACCAUACGGGCCAUCCUCAGUGAGGCAGCCCCCCAUAGGCUUCCGCCAAGCUCUGGUCUGGAAUUCUCGGGUGCCAA` — result for “RBNS enrichment (R)”: 0.224.
For `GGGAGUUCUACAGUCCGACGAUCGCAGCCAGUGGGUGGUUGUUUCUCAAUCUCUGUAGCAUGACUUUUUAAUCCCCAGGUGUGUUAGUCCCAGCCUAGUUUGGUGCUCGAGGUGAGAGGGGAUUUGAAUCUGUUGGAAUUCUCGGGUGCCAA`, “RBNS enrichment (R)” read 0.897.
For `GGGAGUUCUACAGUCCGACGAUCGAUUCCGAUCGACUGCCAAGCAGCAGCCGCUGCCAGGGGCUGCGUCUGACAUCCUGACCUCCUGGACUGUAGGACUAUAUAAAGUACUACUGUAGAACUGCAAUUUCCAUUGGAAUUCUCGGGUGCCAA`, “RBNS enrichment (R)” read 0.379.
`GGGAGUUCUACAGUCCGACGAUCAGAUUGAAUAGGGUAAAAGAAAGUCUUUAAAUGCUAUCGCAUCCUAGACCCUCUUCCCACCUACUAUGGCAUUGCAUAUUAGUCUGUUGAGACAUUCAUUGUUGCUUGACUGGAAUUCUCGGGUGCCAA`: “RBNS enrichment (R)” 0.317.

Series 2
Target: Protein max, full length (MAX, Homo sapiens, UniProt P61244-2, residues 1-151)
Method: protein-binding microarray
Form: double-stranded DNA, one strand shown
Matrix: in vitro
Concentration: not given
Setting: k-mer, scored over probes, only values ≥0.25
Reading: higher = stronger binding
For `AACCCACG`, the E-score was 0.398.
With `CCACACGC` the E-score was 0.366.
For `CGCCGCAC`, the E-score was 0.306.
The E-score of `AGCGTGCC` is reported as 0.408.
`CACCTGCA` gave an E-score of 0.352.
The E-score of `GCACATGA` is reported as 0.454.
The E-score of `ACGACCAC` is reported as 0.286.
For `CACCGTGG`, the E-score was 0.347.
`GCGTGAGC` has an E-score of 0.376.
For `AGGTGACC`, the E-score was 0.276.
The E-score of `TGCTCACA` is reported as 0.287.
The E-score of `ATGTGTTG` is reported as 0.284.
`GCCTACAC` gave an E-score of 0.252.
`ACGTTGCA` gave an E-score of 0.295.
`ACGCCCAC` gave an E-score of 0.311.
The E-score of `CGTGGGGC` is reported as 0.355.
`CACCGTGA` has an E-score of 0.269.
For `GCCCACAC`, the E-score was 0.288.

Series 3
Target: PABPC1L2, full length, GST fusion (mouse, UniProt A0ABA7IW68)
Method: RNAcompete
Form: RNA
Matrix: in vitro
Concentration: 20 nM
Setting: 7-mer, probes averaged, single round
Reference: mean of 7-mers
Reading: higher = stronger binding
Target sequence (chain): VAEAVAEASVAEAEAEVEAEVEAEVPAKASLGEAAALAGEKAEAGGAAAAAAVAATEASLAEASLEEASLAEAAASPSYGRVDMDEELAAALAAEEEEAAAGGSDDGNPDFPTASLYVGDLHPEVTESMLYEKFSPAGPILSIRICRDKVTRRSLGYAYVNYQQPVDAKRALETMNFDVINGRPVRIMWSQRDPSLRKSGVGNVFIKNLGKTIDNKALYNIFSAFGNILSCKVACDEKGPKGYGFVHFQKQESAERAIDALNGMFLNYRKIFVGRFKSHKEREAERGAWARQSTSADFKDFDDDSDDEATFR
For `CAAGACC`, the 7-mer Z-score was 0.149.
`CAAAAUG` gave a 7-mer Z-score of 1.39.
For `UCCACCC`, the 7-mer Z-score was -0.269.
The 7-mer Z-score of `GUCACUC` is reported as -0.278.
With `UUAGCUC` the 7-mer Z-score was -0.235.
`UUAGGCG` gave a 7-mer Z-score of -0.0174.
`GAGAGGG` gave a 7-mer Z-score of 0.356.
`AUUUGAA` gave a 7-mer Z-score of -0.206.
The 7-mer Z-score of `AAUGUCA` is reported as 0.0116.
`GACAUAG` has a 7-mer Z-score of -0.0428.
`UUAACUA` gave a 7-mer Z-score of -0.15.
`UCCAUCA` gave a 7-mer Z-score of -0.211.
The 7-mer Z-score of `UGUUAAG` is reported as -0.295.
For `GGGGUCC`, the 7-mer Z-score was 0.0207.
The 7-mer Z-score of `UAGGUUA` is reported as 0.00436.
With `GGCUCGC` the 7-mer Z-score was -0.313.
`CUGGACC` has a 7-mer Z-score of -0.0953.
`UAGCAGA` has a 7-mer Z-score of -0.0482.
The 7-mer Z-score of `CGCGAAG` is reported as -0.161.
The 7-mer Z-score of `GUAUAGC` is reported as -0.0591.
The 7-mer Z-score of `UAACCCG` is reported as -0.277.

Series 4
Target: Prothrombin, mature alpha-thrombin (F2, Homo sapiens, UniProt P00734)
Method: aptamer microarray, sandwich
Form: DNA with 2'F-ANA
Matrix: in vitro
Concentration: 200 nM
Setting: whole 15-mer aptamer, many near background
With: Cy3 exosite-II aptamer, 400 nM
Reading: higher = stronger binding
Strand: GGTTGGTGTGGTTGG
For `2'F-ANA at 2 4 5 8 11 12 13`, “mean fluorescence intensity” read 82.4 a.u.
`2'F-ANA at 1 3 4 5 7 8 9 12 14`: “mean fluorescence intensity” 53.1 a.u.
`2'F-ANA at 4 6 7 8 10 11 12 14` — result for “mean fluorescence intensity”: 60.3 a.u.
Under “mean fluorescence intensity”, `2'F-ANA at 2 4 7 14 15` is recorded as 134 a.u.
`2'F-ANA at 1 3 4 5 6 8 9 13 14 15`: “mean fluorescence intensity” 59 a.u.
Under “mean fluorescence intensity”, `2'F-ANA at 3 7 8 15` is recorded as 1180 a.u.
For `2'F-ANA at 4 5 7 9 10 11 13 14`, “mean fluorescence intensity” read 43.5 a.u.
Under “mean fluorescence intensity”, `2'F-ANA at 1 2 3 4 5 10 12 13` is recorded as 59.3 a.u.
Under “mean fluorescence intensity”, `2'F-ANA at 1 2 3 4 6 7 8 9 10 14` is recorded as 51.5 a.u.
For `2'F-ANA at 1 3 4 7 8 9 10 11 12 14 15`, “mean fluorescence intensity” read 54.8 a.u.
For `2'F-ANA at 3 4 7 8 10 11 13 14 15`, “mean fluorescence intensity” read 184 a.u.
`2'F-ANA at 1 2 3 4 7 8 9 10 11 12 14 15` — result for “mean fluorescence intensity”: 54.1 a.u.
`2'F-ANA at 4 5 6 7 10 12 13 14 15` — result for “mean fluorescence intensity”: 49.9 a.u.
`2'F-ANA at 1 2 3 4 10 11 12 13 14 15`: “mean fluorescence intensity” 54.7 a.u.
`2'F-ANA at 2 5 8 11 12 13`: “mean fluorescence intensity” 140 a.u.
`2'F-ANA at 1 4 5 7 13 15` — result for “mean fluorescence intensity”: 48.2 a.u.
For `2'F-ANA at 1 3 4 5 9 11 13 14 15`, “mean fluorescence intensity” read 50 a.u.
`2'F-ANA at 2 3 5 6 7 8 9 11 12 15`: “mean fluorescence intensity” 189 a.u.
For `2'F-ANA at 1 3 4 5 7 9 10 11 15`, “mean fluorescence intensity” read 50.5 a.u.
`2'F-ANA at 1 4 5 7 11 12 13 14` — result for “mean fluorescence intensity”: 44.7 a.u.
`2'F-ANA at 2 3 4 5 7 8 10 11 13 14` — result for “mean fluorescence intensity”: 48.5 a.u.
For `2'F-ANA at 3 4 5 7 11 12 14`, “mean fluorescence intensity” read 55.7 a.u.
Under “mean fluorescence intensity”, `2'F-ANA at 3 4 7 9 10 11 14` is recorded as 239 a.u.

Series 5
Target: Sal-like protein 4, full length isoform B (SALL4, Homo sapiens, UniProt Q9UJQ4-2, residues 1-616)
Method: universal PBM
Form: double-stranded DNA, one strand shown
Matrix: in vitro
Concentration: not given
Setting: 8-mer, flanks averaged, mean of replicates
Reading: higher = stronger binding
`CAGTGGAA` has an E-score of -0.172.
`CAGTTTGA` gave an E-score of 0.0128.
With `CCGAACTC` the E-score was -0.217.
`AACGGTCC` has an E-score of -0.222.
The E-score of `CTGTGTTA` is reported as 0.0284.
With `CGTGCACA` the E-score was -0.00993.
`CTTACTAC` gave an E-score of 0.151.
With `CGTGGAAC` the E-score was -0.07.
`AGCCTATA` has an E-score of 0.172.
`ATAGCGAT` gave an E-score of -0.0546.
With `ATCAGACG` the E-score was -0.0287.
The E-score of `GGTCCACC` is reported as -0.312.
`AACTACCA` has an E-score of 0.104.
The E-score of `CGGCCCTA` is reported as -0.286.
`AAGGTGGA` has an E-score of -0.15.
`CGCGAATA` gave an E-score of 0.103.

A few entries again (series 5):
`ATAGCGAT` gave an E-score of -0.0546.
`CGCGAATA` gave an E-score of 0.103.
`CTTACTAC` gave an E-score of 0.151.
`AGCCTATA` has an E-score of 0.172.
With `CCGAACTC` the E-score was -0.217.
`AAGGTGGA` has an E-score of -0.15.
`AACGGTCC` has an E-score of -0.222.
`CAGTTTGA` gave an E-score of 0.0128.
With `CGTGGAAC` the E-score was -0.07.
The E-score of `GGTCCACC` is reported as -0.312.
